Measurements pooled from the literature.
Values joined by “and” are separate records of one study, mostly repeats; a detail may differ. ± gives the spread as reported. In brackets after ≈: the same amount, converted by molar mass.

SMILES | organism | assay | system | conditions | how to read | endpoint | result
Cl.N=C(CC(O)c1cc2c(F)cc(F)cc2c2cc(C(F)(F)F)ccc12)Nc1ccc(Br)cc1 (stereo not drawn) | Plasmodium berghei | Peters suppressive test | ANKA, infected mice | oral, 4 x 3 mg/kg, day 4 | baseline: untreated control | parasitemia reduction | 99.6%
CC(C)(C)NC(=O)[C@@H](N)Cc1ccc(OP2(=O)CO[C@@H](Cn3ccc(N)nc3=O)CO2)cc1 (stereo partly drawn) | human cytomegalovirus | viral replication |  |  |  | IC50 | 0.1 µM
Cc1ccc(N(c2ccc(NC(=O)CN(C)c3ccccc3N3CCCC3=O)cc2)C(C)C)cc1 | Plasmodium falciparum |  | Dd2-B2 | 27 nM, 60 days |  | minimum inoculum of resistance | 4e+07 parasites
O=C(NNc1cc(F)ccc1F)c1nnc(CC23CC4CC(CC(C4)C2)C3)o1 | Botryosphaeria dothidea | fungal growth, inhibitor |  | 50 µg/mL |  | inhibition | 100%
Cc1c2c(nn1C)CSCc1cc(n(C)n1)CSc1cc(c3ccccc3c1)OCCCc1c(C(=O)O)n(C)c3c-2c(Cl)ccc13 | Staphylococcus aureus | label-free quantitative proteomics, item: SAOUHSC_01835 protein | SA113 | concentration not given | baseline: untreated control | fold change | 7.67
Cl.N/C(CC(O)c1cc2c(F)cc(F)cc2c2cc(C(F)(F)F)ccc12)=N\c1ccc(F)cc1 (stereo not drawn) | Plasmodium berghei | Peters suppressive test | ANKA, infected mice | oral, 4 x 3 mg/kg, day 4 | baseline: untreated control | parasitemia reduction | 99.9%
C[C@H]1[C@H](OC(=O)CCC(=O)O)O[C@@H]2O[C@@]3(C)CC[C@H]4[C@H](C)CC[C@@H]1[C@@]24OO3 | Plasmodium berghei |  | ANKA GFP-transfected, Mus musculus | oral, 4 x 100 mg/kg |  | mean survival time | 27 days
C[C@H]1COCCN1c1nc(NCc2cccnc2C(F)(F)F)c2cccnc2n1 | Brugia malayi |  | SCID mouse | x14d dosing, 6 weeks post-treatment |  | median adult worm burden | 3 worms per mouse
Cn1c(=O)ccc2ccc(F)c(CCNC[C@H]3CN(c4cnc5c(n4)NC(=O)CO5)C(=O)O3)c21 | Proteus spp. |  |  |  |  | MIC90 | 0.5 µg/mL (≈ 1.07 µM)
CC[C@H](C)[C@H](NC(=O)[C@H](C)NC(=O)[C@H](CCCCN)NC(=O)[C@H](CC(C)C)NC(=O)[C@H](C)NC(=O)[C@@H](NC(=O)[C@H](Cc1c[nH]cn1)NC(=O)[C@H](CC(C)C)NC(=O)[C@@H](NC(=O)[C@@H](NC(=O)[C@H](CCCCN)NC(=O)[C@H](C)NC(=O)[C@H](C)NC(=O)[C@H](CO)NC(=O)[C@H](CCCCN)NC(=O)[C@H](Cc1ccccc1)NC(=O)[C@@H](NC(=O)[C@H](CCCCN)NC(=O)[C@H](CC(C)C)NC(=O)[C@H](Cc1ccccc1)NC(=O)[C@H](CO)NC(=O)[C@H](CCCCN)NC(=O)[C@H](Cc1c[nH]c2ccccc12)NC(=O)[C@H](CCCCN)NC(C)=O)[C@@H](C)O)[C@@H](C)O)C(C)C)[C@@H](C)O)C(=O)N[C@@H](CO)C(=O)N[C@@H](CO)C(N)=O | Pseudomonas aeruginosa |  | ATCC 27853 |  |  | MIC geometric mean | 4 µg/mL (≈ 1.36 µM)
CC1(C)SC2C(NC(=O)C(NC(=O)C3=C(O)C(Cc4ccc(O)cc4)NC3=O)c3ccccc3)C(=O)N2C1C(=O)O (stereo not drawn) | Escherichia coli | broth microdilution | JW0790-2 fiu deletion mutant | ferric iron uptake gene |  | MIC | 25 µg/mL (≈ 43.1 µM)
Nc1ncnc2c1ncn2[C@@H]1O[C@@H]2COP(=O)(O)O[C@H]3[C@@H](O)[C@H](n4cnc5c(=O)[nH]cnc54)O[C@@H]3COP(=O)(O)O[C@H]2[C@H]1O | West Nile virus | RNA sequencing, item: development, nervous system, R-HSA-9675108 | HFF-1 cells | concentration not given, downregulated pathway | baseline: WNV-infected untreated cells | fold enrichment | 2.95
CCCCc1c([N+](=O)[O-])oc2ccc3ccccc3c12 | Mycobacterium marinum | REMA | ATCC BAA-535 |  |  | MIC90 | 0.25 µg/mL (≈ 0.928 µM)
O=c1c(O)c(-c2ccc(O)c(O)c2)oc2c(O)c(O)cc(O)c12 | Drosophila melanogaster | fluorescence |  | liquid food, 40 µg/mL, first instar larvae | baseline: solvent | fluorescein ingestion | -32.2%
Nc1nc(O)c2ncn(COC(CO)CO)c2n1 | human cytomegalovirus | viral cytopathic effect | HEL, Davis |  |  | EC50 | 3.15 µM
COc1ccc(C[C@H](NC(=O)[C@H](C)NC(=O)CN2CCOCC2)C(=O)N[C@@H](Cc2ccccc2)C(=O)C2(C)CO2)cc1 (stereo in doubt) | Plasmodium berghei |  | ANKA, mouse | oral |  | minimum effective dose | 10 mg/kg
N=C(N)NCCC[C@H](NC(=O)[C@H](Cc1c[nH]c2ccccc12)NC(=O)[C@H](CCCNC(=N)N)NC(=O)[C@@H](N)Cc1c[nH]c2ccccc12)C(=O)N[C@@H](Cc1ccccc1)C(=O)N[C@@H](CCC(N)=O)C(=O)N[C@@H](Cc1ccccc1)C(=O)N[C@@H](CCC(N)=O)C(=O)N[C@@H](Cc1ccccc1)C(=O)N[C@@H](CCCCN)C(N)=O | Bacillus subtilis |  |  |  |  | MBC | 35 µM
CSCC[C@H](NC(=O)[C@H](CC(C)C)NC(=O)[C@@H](NC(=O)[C@H](Cc1ccccc1)NC(=O)[C@H](CCCCN)NC(=O)[C@H](CCCNC(=N)N)NC(=O)[C@@H](NC(=O)[C@H](Cc1ccc(O)cc1)NC(=O)[C@H](CCCNC(=N)N)NC(=O)[C@@H](N)CCCNC(=N)N)C(C)C)C(C)C)C(=O)N[C@@H](CCCNC(=N)N)C(=O)O | Micrococcus luteus |  | NCTC 2665 |  |  | MBC | 32 µg/mL
CCCCc1ccc(CNc2nc(N(C)C)nc(N(C)C)c2/N=N/c2ccc(Cl)cc2)cc1 | Plutella xylostella | leaf dipping |  | 100 mg/L |  | mortality | 90%
CNC(=O)c1cc(Cl)cc(C)c1NC(=O)c1cc(Br)nn1-c1ncccc1Cl | Plutella xylostella |  | Raphanus sativus field plot | 25 ppm, 72 h, 5% water-dispersible granule |  | larval viability | 12.1% and 7.5% and 6.1%
CS(=O)(=O)OCCN(CCBr)c1c(C(=O)NCCO)cc([N+](=O)[O-])cc1[N+](=O)[O-] | Homo sapiens | cell viability, resazurin or CellTiter-Glo | sample B BCP-ALL PDX cells, ex vivo |  |  | IC50 | 37.6 µM
CN(C)c1nc(NCc2ccc(OC(F)(F)F)cc2)c(/N=N/c2ccc(Cl)cc2)c(N(C)C)n1 | Plutella xylostella | leaf dipping |  | 200 mg/L, 96 h |  | mortality | 73.3 ± 5.8%
COC(=O)[C@@H](N)[C@@H](C)OP1(=O)CO[C@@H](Cn2cnc3c(N)ncnc32)CO1 (stereo partly drawn) | human cytomegalovirus | viral replication |  |  |  | IC50 | 0.62 µM
Cn1cc(NC(=O)c2cc(NC(=O)CN=C(N)N)cn2C)cc1C(=O)NCCC(=N)N | Bacillus subtilis | bacterial cytological profiling | ATCC 6633 |  |  | DNA width | 0.69 µm and 0.75 µm and 0.77 µm
Cl.N=C(CC(O)c1cc2c(F)cc(F)cc2c2cc(C(F)(F)F)ccc12)Nc1ccc(F)c(F)c1 (stereo not drawn) | Plasmodium berghei | Peters test | ANKA, mice | oral, 4 x 30 mg/kg |  | mean survival time | 28 days
CS(=O)(=O)CCCn1c(Cn2c(=O)n(CC(F)(F)F)c3ccncc32)cc2cc(Cl)ccc21 | respiratory syncytial virus | RT-qPCR | hospitalized infants 1-24 months, nasal swab | oral, 1-9 mg/kg daily, day 4, all doses combined | baseline: baseline | LS mean viral load change | -2.65 log10 copies/mL
COc1cc2oc([N+](=O)[O-])cc2c2ccccc12 | Mycobacterium marinum | REMA | ATCC BAA-535 |  |  | MIC90 | 0.125 µg/mL (≈ 0.514 µM)
COC(=O)N[C@H](C(=O)N1CCC[C@H]1c1ncc(-c2ccc(-c3ccc(-c4cnc([C@@H]5CCCN5C(=O)[C@@H](NC(=O)OC)C(C)C)[nH]4)cc3)cc2)[nH]1)C(C)C | Hepatitis C virus |  | replicon cells | 90% effect level, added: NS5B palm site II inhibitor, ratio 2.5:1 |  | combination index | 0.56
CCc1c([N+](=O)[O-])oc2ccc3ccccc3c12 | Mycobacterium marinum | REMA | ATCC BAA-535 |  |  | MIC90 | 0.0625 µg/mL (≈ 0.259 µM)
O=C(NNc1ccc(Cl)c(Cl)c1)c1nnc(C23CC4CC(CC(C4)C2)C3)o1 | Botryosphaeria dothidea | fungal growth, inhibitor |  | 50 µg/mL |  | inhibition | 100%

For quick reference, copied from above:
SMILES | organism | assay | system | conditions | how to read | endpoint | result
COc1cc2oc([N+](=O)[O-])cc2c2ccccc12 | Mycobacterium marinum | REMA | ATCC BAA-535 |  |  | MIC90 | 0.125 µg/mL (≈ 0.514 µM)
COC(=O)N[C@H](C(=O)N1CCC[C@H]1c1ncc(-c2ccc(-c3ccc(-c4cnc([C@@H]5CCCN5C(=O)[C@@H](NC(=O)OC)C(C)C)[nH]4)cc3)cc2)[nH]1)C(C)C | Hepatitis C virus |  | replicon cells | 90% effect level, added: NS5B palm site II inhibitor, ratio 2.5:1 |  | combination index | 0.56
CCc1c([N+](=O)[O-])oc2ccc3ccccc3c12 | Mycobacterium marinum | REMA | ATCC BAA-535 |  |  | MIC90 | 0.0625 µg/mL (≈ 0.259 µM)
O=C(NNc1ccc(Cl)c(Cl)c1)c1nnc(C23CC4CC(CC(C4)C2)C3)o1 | Botryosphaeria dothidea | fungal growth, inhibitor |  | 50 µg/mL |  | inhibition | 100%
